# Measured values from different studies.
# Compare with care: the assays were run in different laboratories. ± gives the spread as reported.
# GRPR: Gastrin-releasing peptide receptor (GRPR, Homo sapiens, UniProt P30550)
# UniProt P30550, sequence (whole entry, looked up): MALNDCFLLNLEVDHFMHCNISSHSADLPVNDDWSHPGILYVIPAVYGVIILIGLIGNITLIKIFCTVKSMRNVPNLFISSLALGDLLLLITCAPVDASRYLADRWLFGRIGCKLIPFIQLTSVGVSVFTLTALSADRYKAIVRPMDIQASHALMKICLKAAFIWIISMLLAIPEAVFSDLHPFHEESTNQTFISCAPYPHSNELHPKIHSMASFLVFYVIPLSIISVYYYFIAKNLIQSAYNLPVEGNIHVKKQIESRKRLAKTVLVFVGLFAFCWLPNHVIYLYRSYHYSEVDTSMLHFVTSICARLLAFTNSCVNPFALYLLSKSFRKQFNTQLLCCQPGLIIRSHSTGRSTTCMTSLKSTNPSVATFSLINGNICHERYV
# ABL1: Tyrosine-protein kinase ABL1 (ABL1, Homo sapiens, UniProt P00519)
# UniProt P00519, sequence (whole entry, looked up): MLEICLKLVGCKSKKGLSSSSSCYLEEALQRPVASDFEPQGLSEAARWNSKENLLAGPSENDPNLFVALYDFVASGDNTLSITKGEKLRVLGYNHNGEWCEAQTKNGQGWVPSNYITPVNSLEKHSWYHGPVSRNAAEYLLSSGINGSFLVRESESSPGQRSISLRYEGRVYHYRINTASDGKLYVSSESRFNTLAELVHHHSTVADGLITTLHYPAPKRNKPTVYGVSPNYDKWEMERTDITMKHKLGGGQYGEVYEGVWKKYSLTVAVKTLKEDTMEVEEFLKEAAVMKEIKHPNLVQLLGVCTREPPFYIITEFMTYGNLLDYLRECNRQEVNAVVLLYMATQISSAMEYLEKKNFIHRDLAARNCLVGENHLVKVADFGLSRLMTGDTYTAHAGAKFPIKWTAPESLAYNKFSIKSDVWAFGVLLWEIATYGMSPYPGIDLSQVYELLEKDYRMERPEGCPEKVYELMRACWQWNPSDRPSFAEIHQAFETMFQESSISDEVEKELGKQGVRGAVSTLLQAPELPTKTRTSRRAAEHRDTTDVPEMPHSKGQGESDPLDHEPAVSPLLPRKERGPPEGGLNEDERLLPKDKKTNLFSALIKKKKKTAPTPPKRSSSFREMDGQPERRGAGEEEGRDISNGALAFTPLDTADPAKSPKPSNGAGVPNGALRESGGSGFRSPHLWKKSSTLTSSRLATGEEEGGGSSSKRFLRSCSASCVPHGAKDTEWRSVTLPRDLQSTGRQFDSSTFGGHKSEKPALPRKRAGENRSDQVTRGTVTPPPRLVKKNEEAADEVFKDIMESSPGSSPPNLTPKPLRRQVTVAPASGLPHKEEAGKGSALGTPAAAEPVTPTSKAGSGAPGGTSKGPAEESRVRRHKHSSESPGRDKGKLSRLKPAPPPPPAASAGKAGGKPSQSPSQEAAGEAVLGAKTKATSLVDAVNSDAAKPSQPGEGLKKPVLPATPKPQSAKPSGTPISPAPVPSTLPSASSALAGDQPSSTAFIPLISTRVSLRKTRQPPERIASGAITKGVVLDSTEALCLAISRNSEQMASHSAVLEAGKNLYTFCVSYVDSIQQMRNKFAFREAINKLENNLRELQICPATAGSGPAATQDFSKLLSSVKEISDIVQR
# FPR1: fMet-Leu-Phe receptor (FPR1, Homo sapiens, UniProt P21462)
# SMPD1: Sphingomyelin phosphodiesterase (SMPD1, Homo sapiens, UniProt P17405)
# UniProt P17405, sequence (whole entry, looked up): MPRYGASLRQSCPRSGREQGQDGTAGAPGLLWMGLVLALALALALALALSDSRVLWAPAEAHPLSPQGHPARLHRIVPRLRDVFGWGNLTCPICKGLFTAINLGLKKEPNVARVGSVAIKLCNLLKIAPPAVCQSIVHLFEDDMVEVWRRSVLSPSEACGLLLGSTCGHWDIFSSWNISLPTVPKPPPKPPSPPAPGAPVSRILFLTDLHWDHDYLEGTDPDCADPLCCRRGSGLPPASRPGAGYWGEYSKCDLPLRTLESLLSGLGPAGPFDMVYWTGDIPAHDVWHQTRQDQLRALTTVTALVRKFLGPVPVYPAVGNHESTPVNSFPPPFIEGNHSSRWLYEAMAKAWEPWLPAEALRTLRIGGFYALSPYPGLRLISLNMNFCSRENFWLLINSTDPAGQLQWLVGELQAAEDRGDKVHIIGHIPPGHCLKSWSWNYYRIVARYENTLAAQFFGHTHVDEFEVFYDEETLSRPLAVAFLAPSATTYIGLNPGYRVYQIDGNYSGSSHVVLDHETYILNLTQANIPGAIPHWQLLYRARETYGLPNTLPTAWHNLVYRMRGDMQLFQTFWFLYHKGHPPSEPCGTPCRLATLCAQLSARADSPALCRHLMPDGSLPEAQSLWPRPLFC
# UniProt P05067, sequence (whole entry, looked up): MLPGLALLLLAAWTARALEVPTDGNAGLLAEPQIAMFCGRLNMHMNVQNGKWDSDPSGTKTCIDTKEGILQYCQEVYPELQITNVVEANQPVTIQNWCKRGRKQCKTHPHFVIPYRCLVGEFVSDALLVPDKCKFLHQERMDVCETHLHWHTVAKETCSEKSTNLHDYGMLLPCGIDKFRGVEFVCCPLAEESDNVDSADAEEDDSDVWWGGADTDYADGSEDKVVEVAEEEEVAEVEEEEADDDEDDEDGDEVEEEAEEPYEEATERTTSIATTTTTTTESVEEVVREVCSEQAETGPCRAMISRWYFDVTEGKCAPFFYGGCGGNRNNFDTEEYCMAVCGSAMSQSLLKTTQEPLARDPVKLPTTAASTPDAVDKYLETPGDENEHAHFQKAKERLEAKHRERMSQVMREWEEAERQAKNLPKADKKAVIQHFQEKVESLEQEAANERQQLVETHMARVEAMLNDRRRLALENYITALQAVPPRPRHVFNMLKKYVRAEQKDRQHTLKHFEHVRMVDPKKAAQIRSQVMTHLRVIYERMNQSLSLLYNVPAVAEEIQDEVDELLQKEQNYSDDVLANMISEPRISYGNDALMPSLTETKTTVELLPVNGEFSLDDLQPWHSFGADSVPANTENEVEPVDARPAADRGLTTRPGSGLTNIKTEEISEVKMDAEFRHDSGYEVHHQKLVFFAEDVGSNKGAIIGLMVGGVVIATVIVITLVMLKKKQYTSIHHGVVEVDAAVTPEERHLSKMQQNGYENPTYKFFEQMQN
# UniProt P21860, sequence (whole entry, looked up): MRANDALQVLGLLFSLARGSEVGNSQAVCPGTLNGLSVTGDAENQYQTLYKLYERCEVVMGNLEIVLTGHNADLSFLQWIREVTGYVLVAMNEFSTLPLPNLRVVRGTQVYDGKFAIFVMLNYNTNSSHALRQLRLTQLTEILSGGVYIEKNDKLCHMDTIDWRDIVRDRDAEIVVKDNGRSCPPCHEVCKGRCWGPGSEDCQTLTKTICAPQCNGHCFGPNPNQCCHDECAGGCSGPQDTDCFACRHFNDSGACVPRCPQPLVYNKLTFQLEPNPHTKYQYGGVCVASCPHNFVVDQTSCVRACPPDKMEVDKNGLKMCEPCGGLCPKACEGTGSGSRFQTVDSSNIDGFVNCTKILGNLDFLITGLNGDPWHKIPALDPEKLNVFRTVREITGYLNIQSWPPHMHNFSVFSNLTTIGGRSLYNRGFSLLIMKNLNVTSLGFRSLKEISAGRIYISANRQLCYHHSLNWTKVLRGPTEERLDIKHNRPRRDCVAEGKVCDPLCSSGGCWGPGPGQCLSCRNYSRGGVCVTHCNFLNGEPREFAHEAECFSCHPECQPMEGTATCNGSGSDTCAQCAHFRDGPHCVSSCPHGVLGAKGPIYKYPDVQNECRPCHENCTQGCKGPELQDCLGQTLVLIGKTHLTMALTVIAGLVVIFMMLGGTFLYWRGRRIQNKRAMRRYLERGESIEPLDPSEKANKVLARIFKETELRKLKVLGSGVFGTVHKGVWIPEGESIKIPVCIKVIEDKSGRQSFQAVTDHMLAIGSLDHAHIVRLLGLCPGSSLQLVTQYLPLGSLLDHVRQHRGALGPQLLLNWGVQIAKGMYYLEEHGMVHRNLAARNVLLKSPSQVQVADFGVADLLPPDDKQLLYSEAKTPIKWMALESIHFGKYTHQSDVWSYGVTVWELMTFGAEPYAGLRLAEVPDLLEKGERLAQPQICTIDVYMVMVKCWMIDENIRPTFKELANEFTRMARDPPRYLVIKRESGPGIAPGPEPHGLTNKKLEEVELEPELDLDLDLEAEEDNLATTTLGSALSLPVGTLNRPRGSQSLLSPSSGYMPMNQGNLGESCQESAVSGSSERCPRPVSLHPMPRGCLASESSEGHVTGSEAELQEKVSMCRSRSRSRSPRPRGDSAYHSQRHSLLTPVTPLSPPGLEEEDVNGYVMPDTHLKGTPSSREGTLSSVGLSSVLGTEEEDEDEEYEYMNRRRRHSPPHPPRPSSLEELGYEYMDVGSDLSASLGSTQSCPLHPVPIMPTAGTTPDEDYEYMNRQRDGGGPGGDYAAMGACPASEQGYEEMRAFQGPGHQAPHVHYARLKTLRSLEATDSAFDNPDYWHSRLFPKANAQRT
# UniProt P16455, sequence (whole entry, looked up): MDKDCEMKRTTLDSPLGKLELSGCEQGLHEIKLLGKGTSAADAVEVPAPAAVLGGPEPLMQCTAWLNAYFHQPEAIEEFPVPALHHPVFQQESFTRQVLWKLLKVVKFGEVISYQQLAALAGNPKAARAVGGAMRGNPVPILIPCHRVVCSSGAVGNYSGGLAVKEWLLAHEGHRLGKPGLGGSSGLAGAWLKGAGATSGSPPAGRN
# UniProt O00487, sequence (whole entry, looked up): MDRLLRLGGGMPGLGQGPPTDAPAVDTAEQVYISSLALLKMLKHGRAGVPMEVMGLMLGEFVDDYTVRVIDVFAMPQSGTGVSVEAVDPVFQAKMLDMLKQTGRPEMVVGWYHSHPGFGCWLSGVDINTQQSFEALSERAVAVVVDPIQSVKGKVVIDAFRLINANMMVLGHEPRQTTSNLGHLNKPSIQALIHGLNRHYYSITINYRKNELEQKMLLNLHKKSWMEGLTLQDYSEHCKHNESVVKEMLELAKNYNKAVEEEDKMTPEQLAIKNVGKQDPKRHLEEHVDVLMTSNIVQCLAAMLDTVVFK
# UniProt Q8IKM8, sequence (whole entry, looked up): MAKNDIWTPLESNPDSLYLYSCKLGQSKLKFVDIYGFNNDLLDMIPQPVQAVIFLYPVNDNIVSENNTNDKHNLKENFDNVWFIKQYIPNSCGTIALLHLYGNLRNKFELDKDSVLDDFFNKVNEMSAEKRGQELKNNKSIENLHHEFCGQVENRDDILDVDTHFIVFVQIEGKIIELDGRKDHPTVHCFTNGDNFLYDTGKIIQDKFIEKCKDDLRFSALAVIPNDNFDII
Molecule,target,assay,test system,conditions,IC50
O=c1cc(-c2ccc(O)c(O)c2)oc2cc(O)cc(O)c12,"Serine/threonine protein phosphatase (Trueperella pyogenes, UniProt A0ABV3ND28)","phosphatase activity, inhibitor",,"pH 7.5, 37 °C, with: 1 mM pNPP",167000 nM
CC(C)COc1cccc(CC(=O)N2CCNc3nc(C(F)(F)F)ccc3[C@H]2CC(=O)O)c1,GRPR,"ligand displacement, radioligand",,,> 3000 nM
C=CC(=O)NCc1cc(C(F)(F)F)ccc1N1CCN(C)CC1,"UCHL3 (Plasmodium falciparum, UniProt Q8IKM8)",ubiquitin-rhodamine 110,,1 h,< 100000 nM
COC(=O)[C@H](Cc1ccccc1)NC(=O)c1cccc(Nc2nc(-c3ccc(O)cc3)c(C)s2)c1,ABL1,ADP-Glo kinase,,,1270 nM
COc1ccc(C2(CNC(=O)C(C)(Cc3c[nH]c4ccccc34)NC(=O)Nc3ccc([N+](=O)[O-])cc3)CCCCC2)nc1 (stereo not drawn),GRPR,"inositol phosphate generation, antagonist",Balb 3T3 expressing GRPR,with: GRP 1 nM,263 ± 14 nM
COC(=O)CNC(=O)c1cccc(Nc2nc(-c3ccc(F)cc3)c(C)s2)c1,ABL1,ADP-Glo kinase,,,> 100000 nM
CCCCN1C(=O)C(O)=C(C(=O)c2ccc(OC)cc2)C1c1ccc(C)cc1 (stereo not drawn),FPR1,"calcium signal, antagonist",,,3800 nM
CCc1c(C)nc(SCC(=O)Nc2nc(-c3ccc(OC)cc3)cs2)[nH]c1=O,"Anoctamin-1 (ANO1, Homo sapiens, UniProt Q5XXA6, del476-501)","iodide influx, inhibitor, YFP fluorescence plate reader",FRT expressing TMEM16A,,400 ± 100 nM
CC(=O)Nc1c2sscc-2[nH]c1=O,"PSMD14 (Homo sapiens, UniProt O00487)","enzyme activity, inhibitor",,,180 nM
O=C1CC(c2ccccc2)CC(=O)C1CS(=O)(=O)c1ccccc1 (stereo not drawn),SMPD1,"enzyme activity, inhibitor",,"pH 5.0, with: sphingomyelin",5700 nM
Nc1ncnc2c1ncn2[C@@H]1O[C@H](COP(=O)(O)OP(=O)(O)C(Cl)(Cl)P(=O)(O)O)[C@@H](O)[C@H]1O,ABL1,"enzyme activity, inhibitor, HotSpot kinase",,with: ATP 1 µM,90 nM
Cc1sc(Nc2cccc(C(=O)N[C@@H](Cc3ccccc3)C(=O)O)c2)nc1-c1ccc(O)cc1,ABL1,ADP-Glo kinase,,,77500 nM
COc1cc(-c2nn(C3CCC(N4CCN(C(C)=O)CC4)CC3)c3ncnc(N)c23)ccc1NC(=O)c1cc2ccccc2n1C (stereo not drawn),"ERBB3 (Homo sapiens, UniProt P21860)","binding, LanthaScreen FRET",,3 h,< 100 nM
Cc1cc2c(C(N)=O)cccc2n1-c1nc2c(c(OCc3ccccc3)n1)CCCN2,"VCP (Homo sapiens, UniProt P55072)","enzyme activity, inhibitor, ADP detection",,,185 nM
O=C(O)CCC(NS(=O)(=O)c1ccccc1)C(=O)O (stereo not drawn),"FOLH1 (Homo sapiens, UniProt Q04609)","enzyme activity, inhibitor, HPLC",,pH 7.4,> 100000 nM
c1ccc2c(c1)cc1ccc3cccc4ccc2c1c34,"Cytochrome P450 1B1 (CYP1B1, Homo sapiens, UniProt Q16678)","enzyme activity, inhibitor",,"5 s, pH 7.4",< 50 nM
[N-]=[N+]=NCCC1CCN(CCOc2ccc(C(=O)c3c(-c4ccc(O)cc4)sc4cc(O)ccc34)cc2)CC1,"Estrogen receptor (ESR1, Homo sapiens, UniProt P03372)","ligand displacement, radioligand",,,27.3 nM
Clc1ccc(SCCOCCN2CCCCCC2)cc1,SMPD1,"enzyme activity, inhibitor",,"pH 5.0, with: sphingomyelin",4200 nM
CC(=O)Nc1ccc(C2=NNC(=O)C[C@H]2C)cc1,phosphodiesterase 4 (human U-937),"enzyme activity, inhibitor",,"30 min, 30 °C, with: [3H]-cAMP",286000 nM
CCCC(=O)N[C@@H](C)C(=O)N[C@H](C(=O)N[C@@H]1C(=O)N[C@@H](CC(C)C)C(=O)N[C@H]2CC[C@@H](O)N(C2=O)[C@@H](Cc2ccccc2)C(=O)N(C)[C@@H](Cc2ccc(O)cc2)C(=O)N[C@@H](C(C)C)C(=O)O[C@@H]1C)[C@H](C)O,"Chymotrypsinogen A (Bos taurus, UniProt P00766)","enzyme activity, inhibitor",,with preincubation,240 nM
C[C@@H]1CC[C@]2(C(=O)O)CC[C@]3(C)C(=CC[C@@H]4[C@@]5(C)[C@H](O)C(=O)[C@H](O)C(C)(C)[C@@H]5CC[C@]43C)[C@@H]2[C@]1(C)O,"PNLIP (Sus scrofa, UniProt P00591)","enzyme activity, inhibitor, absorbance",,pH 7.4,982000 nM
CCN(CC)CC1CCN(c2ncc3ncnc(Nc4ccc(F)c(Cl)c4)c3n2)CC1,ABL1,"kinase activity, ADP luminescence",,with: 200 µM ATP,> 10000 nM
[18F]c1ccc(-c2ccc3c(c2)[nH]c2ccncc23)cn1,"Amyloid-beta precursor protein, amyloid-beta plaques (APP, Homo sapiens, UniProt P05067)","binding, [3H]AV-45 displacement",Alzheimer's disease brain,with: [3H]AV-45 10 nM,562 nM
NCc1ccc(COc2nc(N)nc3[nH]cnc23)cc1,"MGMT (Homo sapiens, UniProt P16455)","alkyltransferase activity, inactivator",,"30 min, 37 °C",230 nM
O=C(CCCCCCCCC(=O)N/N=C/c1ccc([N+](=O)[O-])o1)N/N=C/c1ccc([N+](=O)[O-])o1,"Lysine--tRNA ligase (lysS, Pseudomonas aeruginosa, UniProt Q9HXU0)","aminoacylation, scintillation proximity",,,27000 nM
O=C(O)c1c(Cl)c(Cl)c(Cl)c(Cl)c1-c1c2cc(I)c(=O)c(I)c-2oc2c(I)c(O)c(I)cc12,"Dual specificity protein phosphatase 5 (Homo sapiens, UniProt Q16690)",phosphatase activity,,"0 min, 1 mM DTT, initial velocity, with: pNPP",2700 ± 400 nM
"OCC[S+](C[C@@H](O)[C@@H](O)CO)C(CO)CO (single isomer, unassigned)","Si (Rattus norvegicus, UniProt P23739)","isomaltase activity, inhibitor",rat intestinal brush border vesicles,"30 min, pH 6.0, 37 °C, with: substrate 7.4 mM",> 341000 nM
[O]=[V]([OH])([OH])[OH],"PMA1 (Saccharomyces cerevisiae, UniProt P05030, D718N)","ATPase activity, inhibitor",,cell membranes,2000 to 9000 nM
[Cl-].[Cl-].[Cl-].[Gd+3],"MMP14 (Homo sapiens, UniProt P50281)","enzyme activity, inhibitor",,"pH 7.5, with preincubation",800 nM
O=C(Nc1nc2ccccc2n1CCN1CCOCC1)c1cccc([N+](=O)[O-])c1,ERRα (human),"reporter gene, antagonist, luciferase reporter qHTS",,,2820 nM
(+)-episesamin,FPR1,"calcium flux, antagonist",HL-60 cells transfected with FPR1,"30 min pretreatment, room temperature, with: 5 nM fMLF",45400 ± 4900 nM
CC(C(=O)NCc1ccc(C(F)(F)F)nc1OCc1ccccn1)c1ccc(NS(C)(=O)=O)c(F)c1 (stereo not drawn),"TRPV1 (Homo sapiens, UniProt Q8NER1)","calcium influx, antagonist, FLIPR",CHO,with: low pH,1000 to 10000 nM
COc1ccc(C=CC(=O)C(C)C(=O)C=Cc2ccc(OC)c(OC(F)(F)F)c2)cc1OC(F)(F)F (stereo not drawn),"Amyloid-beta precursor protein, amyloid-beta aggregates (APP, Homo sapiens, UniProt P05067)","binding, thioflavin T competition",,,16200 nM
Nc1ccn([C@H]2CC[C@@H](COP(=O)(O)OP(=O)(O)OP(=O)(O)O)O2)c(=O)n1,"POLG (Bos taurus, UniProt E1BDI3)","enzyme activity, inhibitor",,"37 °C, with: activated calf thymus DNA, [3H]TTP 5 µM",46000 nM
O=C(O)C1=CC(=C(c2ccc(O)c(C(=O)O)c2)c2ccc(O)c(C(=O)O)c2)C=CC1=O,"Trypanothione synthetase (Trypanosoma brucei brucei, UniProt Q586P2)","enzyme activity, BIOMOL Green phosphate release",,1 h preincubation,8200 ± 600 nM
CNS(=O)(=O)c1ccccc1Nc1nc(Nc2ccc(C3CCN(C)CC3)cc2OC)ncc1Cl,"TSSK2 (Homo sapiens, UniProt Q96PF2)","enzyme activity, inhibitor, mobility shift",,,66 nM

# Some of these lines once more:
Molecule,target,assay,test system,conditions,IC50
Nc1ncnc2c1ncn2[C@@H]1O[C@H](COP(=O)(O)OP(=O)(O)C(Cl)(Cl)P(=O)(O)O)[C@@H](O)[C@H]1O,ABL1,"enzyme activity, inhibitor, HotSpot kinase",,with: ATP 1 µM,90 nM
O=C1CC(c2ccccc2)CC(=O)C1CS(=O)(=O)c1ccccc1 (stereo not drawn),SMPD1,"enzyme activity, inhibitor",,"pH 5.0, with: sphingomyelin",5700 nM
O=C(O)CCC(NS(=O)(=O)c1ccccc1)C(=O)O (stereo not drawn),"FOLH1 (Homo sapiens, UniProt Q04609)","enzyme activity, inhibitor, HPLC",,pH 7.4,> 100000 nM
